Experimental data of several laboratories.
Every numbered part comes from another study and shows a few of its results, in no order.
Sequence of UniProt O15294 (whole entry, looked up): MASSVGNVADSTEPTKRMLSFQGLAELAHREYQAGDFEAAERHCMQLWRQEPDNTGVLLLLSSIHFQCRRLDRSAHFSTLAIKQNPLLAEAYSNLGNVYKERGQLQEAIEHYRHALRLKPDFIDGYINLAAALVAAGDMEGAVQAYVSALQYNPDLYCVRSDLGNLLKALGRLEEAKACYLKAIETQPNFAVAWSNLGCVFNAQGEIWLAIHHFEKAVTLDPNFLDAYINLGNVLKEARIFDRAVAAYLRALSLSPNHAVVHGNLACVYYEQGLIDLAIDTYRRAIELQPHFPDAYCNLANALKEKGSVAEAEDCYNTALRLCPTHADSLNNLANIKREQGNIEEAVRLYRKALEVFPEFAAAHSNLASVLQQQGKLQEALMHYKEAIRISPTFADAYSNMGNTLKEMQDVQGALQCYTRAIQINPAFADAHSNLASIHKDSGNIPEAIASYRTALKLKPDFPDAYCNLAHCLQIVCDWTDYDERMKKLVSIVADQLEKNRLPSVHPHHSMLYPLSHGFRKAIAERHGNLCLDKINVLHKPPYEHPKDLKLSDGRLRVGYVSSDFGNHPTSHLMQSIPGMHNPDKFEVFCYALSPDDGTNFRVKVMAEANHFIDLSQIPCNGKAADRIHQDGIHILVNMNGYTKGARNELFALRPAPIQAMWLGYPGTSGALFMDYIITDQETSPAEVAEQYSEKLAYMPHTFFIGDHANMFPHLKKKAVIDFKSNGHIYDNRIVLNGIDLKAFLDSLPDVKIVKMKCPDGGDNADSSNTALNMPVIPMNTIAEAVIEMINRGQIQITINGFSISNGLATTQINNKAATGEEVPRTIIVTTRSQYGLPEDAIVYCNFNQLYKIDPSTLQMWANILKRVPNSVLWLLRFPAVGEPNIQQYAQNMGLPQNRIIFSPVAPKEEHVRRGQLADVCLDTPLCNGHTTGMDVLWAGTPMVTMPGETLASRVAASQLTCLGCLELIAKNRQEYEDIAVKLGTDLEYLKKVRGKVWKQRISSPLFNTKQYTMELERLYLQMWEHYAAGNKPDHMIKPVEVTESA

Set 1 — method: protein-binding microarray; form: double-stranded DNA, one strand shown; sample: in vitro; tested at: not given; reading: higher = stronger binding
Target: Transcriptional repressor CTCF (CTCF, Homo sapiens, UniProt P49711, residues 1-727, full length assumed)
Sequence of UniProt P49711 (whole entry, looked up): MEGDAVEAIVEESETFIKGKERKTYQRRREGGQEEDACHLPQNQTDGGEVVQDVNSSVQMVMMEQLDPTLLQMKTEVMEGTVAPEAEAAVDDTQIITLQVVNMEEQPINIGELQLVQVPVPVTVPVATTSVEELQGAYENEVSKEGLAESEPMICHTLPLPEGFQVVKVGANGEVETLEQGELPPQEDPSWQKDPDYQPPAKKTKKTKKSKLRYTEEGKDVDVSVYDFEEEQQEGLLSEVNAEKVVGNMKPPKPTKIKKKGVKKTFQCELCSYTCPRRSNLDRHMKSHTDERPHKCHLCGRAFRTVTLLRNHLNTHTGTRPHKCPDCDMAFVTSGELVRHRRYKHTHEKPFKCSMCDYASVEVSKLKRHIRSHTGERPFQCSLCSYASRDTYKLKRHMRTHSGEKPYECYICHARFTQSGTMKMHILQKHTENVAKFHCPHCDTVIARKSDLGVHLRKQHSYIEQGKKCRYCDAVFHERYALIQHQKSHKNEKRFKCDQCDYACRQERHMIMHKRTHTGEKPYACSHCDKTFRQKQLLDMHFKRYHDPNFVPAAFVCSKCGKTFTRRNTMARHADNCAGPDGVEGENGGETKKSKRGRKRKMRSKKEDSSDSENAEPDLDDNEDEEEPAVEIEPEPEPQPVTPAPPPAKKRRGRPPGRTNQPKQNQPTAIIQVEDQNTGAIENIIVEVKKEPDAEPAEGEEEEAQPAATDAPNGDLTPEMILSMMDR
Notes: k-mer, scored over probes, only values ≥0.25
| Oligonucleotide | E-score |
| --- | --- |
| ATACGTAT | 0.405 |
| AATTTTAA | 0.283 |
| CATTTTTA | 0.306 |
| ATGCGCCG | 0.285 |
| ATGTTGCG | 0.278 |
| TAATGTAA | 0.296 |
| CAATTACA | 0.255 |
| CTAATAAA | 0.287 |

Set 2 — method: Sort-seq; item: YFP reporter; sample: E. coli; notes: PhoQ-PhoP variant library; together with: 10 µM Mg2+; baseline: high Mg2+ state; reading: higher = stronger signaling
Molecule: PhoQ, residues 284 288 289 292 302 303 SCEHLI
| target | fold induction |
| --- | --- |
| PhoP, residues 12 14 15 18 19 SFCSL (Escherichia coli, UniProt P23836) | 18.3 |
| PhoP, residues 12 14 15 18 19 AYFRS (Escherichia coli, UniProt P23836) | 9.13 |
| PhoP, residues 12 14 15 18 19 HHYTI (Escherichia coli, UniProt P23836) | 1.91 |

Set 3 — method: protein binding microarray; form: double-stranded DNA, one strand shown; sample: in vitro; tested at: not given; baseline: not given; reading: higher = stronger binding
Target: Histone acetyltransferase KAT6A, both winged helices, GST fusion (KAT6A, Homo sapiens, UniProt Q92794, residues 1-181)
Notes: 8-mer, flanks averaged, mean of 2 arrays, mostly near background
Residues (chain): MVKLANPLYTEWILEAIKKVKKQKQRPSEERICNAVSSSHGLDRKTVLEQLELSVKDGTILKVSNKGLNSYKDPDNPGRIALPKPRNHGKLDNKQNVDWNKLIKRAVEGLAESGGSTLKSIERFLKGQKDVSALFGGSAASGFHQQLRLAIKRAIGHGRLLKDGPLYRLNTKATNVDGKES
| Oligonucleotide | E-score |
| --- | --- |
| AACTCGAG | -0.155 |
| GAGAAATA | -0.0121 |
| CGGACCCC | 0.125 |
| AACAGGGC | -0.107 |
| GAACACCA | -0.0966 |
| AAGTTTCA | 0.0618 |
| CTTTCTTA | -0.0344 |
| AGGCGCAT | 0.158 |

Further values, each from its own experiment
| Sequence | target | assay | system | setting | scale | measurement | value |
| --- | --- | --- | --- | --- | --- | --- | --- |
| SIVYEYKKGQIHNHR | UDP-N-acetylglucosamine--peptide N-acetylglucosaminyltransferase 110 kDa subunit (OGT, Homo sapiens, UniProt O15294) | binding, phage display NGS | peptide | concentration not given | baseline: input library | enrichment fold change | 3.37 |
